Experimental data collected from several papers.
Lines come from different studies, so protocols differ. “And” joins repeats or separate records; there may be more than shown. pIC50: −log10 of the molar value.
Cell line: HOP-62

SMILES	assay	setting	how to read	measurement	value
C#C[C@@]1(O)[C@@H](CO)O[C@@H](n2cc(I)c3c(N)ncnc32)[C@@H]1O	SRB	NCI-60 screen	–	TGI	6.28 µM and 12 µM
CCCCCCCCCCCCCCCCCCOc1ccc(CC(=O)OCC[N+](C)(C)C)cc1	SRB	10 µM	–	growth inhibition	< 0%
O=c1ccn(Cc2cn(-c3c4ccccc4nc4ccccc34)nn2)c(=O)[nH]1	NCI60 single-dose screen	10 µM	–	growth percentage	97.7%
CCCc1n(Cc2ccc3ccccc3c2)c2ccccc2[n+]1Cc1ccc2ccccc2c1.[Br-]	NCI60 five-dose screen	–	–	TGI	2.03 µM
CCCN1CCN(c2ccc3[nH]c(-c4ccc5[nH]c(-c6ccc(C(F)(F)F)cc6)nc5c4)nc3c2)CC1	SRB	10 µM, 48 h	–	growth percent	-62.6%
Cc1n(Cc2ccc3ccccc3c2)c2ccccc2[n+]1Cc1ccc2ccccc2c1.[Br-]	NCI60 five-dose screen	–	–	TGI	3.24 µM
CCOC(=O)CSc1nc(-c2ccc(Cl)cc2)c2c(NC(=O)c3ccccc3)nnc-2[nH]1	SRB	10 µM, NCI60 single-dose screen	reference: untreated	cell growth	89.5%
O=C1NC(c2ccccc2)(c2ccccc2)C(=O)N1Cc1cn(-c2c3ccccc3nc3ccccc23)nn1	NCI60 single-dose screen	10 µM	–	growth percentage	87.5%
CCCCCCCCCCCCCCCCCCOc1ccc(CC(=O)OCC[N+]2(C)CCOCC2)cc1	SRB	10 µM	–	growth inhibition	< 0%
COC(=O)/C=C1\C(=O)C=C2C3CC4CC(CCC4(C)N21)C3(C)NC(C)=O (stereo not shown)	cell growth, NCI screen	–	–	pIC50	4.70
CCCCN1CCN(c2ccc3[nH]c(-c4ccc5[nH]c(-c6cc(OC)c(OC)c(OC)c6)nc5c4)nc3c2)CC1	SRB	10 µM, 48 h	–	growth percent	61.4%
Cc1cc(C)n(C(=S)[S][Au][PH](CCCCCC[PH]([Au][S]C(=S)n2nc(C)cc2C)(c2ccccc2)c2ccccc2)(c2ccccc2)c2ccccc2)n1	cell growth, NCI-60 screen	non-small cell lung cancer	–	log10 TGI	-5.61
CCOc1ccc(-c2nc3cc(-c4nc5cc(N6CCN(C)CC6)ccc5[nH]4)ccc3[nH]2)cc1OCC	SRB	10 µM, 48 h	–	growth percent	16.7%
Cc1cc(-c2ccccc2)n(-c2nc(-c3ccc(Cl)cc3)c3c(NC(=O)c4ccccc4)nnc-3[nH]2)n1	SRB	10 µM, NCI60 single-dose screen	reference: untreated	cell growth	98%
CCCCN1CCN(c2ccc3[nH]c(-c4ccc5[nH]c(-c6ccc(OCC)cc6)nc5c4)nc3c2)CC1	SRB	10 µM, 48 h	–	growth percent	46.2%
O=C(Nc1nnc2n3c(=S)[nH][nH]c3nc(-c3ccc(Cl)cc3)c1-2)c1ccccc1	SRB	10 µM, NCI60 single-dose screen	reference: untreated	cell growth	64.6%

For quick reference, copied from above:
SMILES	assay	setting	how to read	measurement	value
Cc1n(Cc2ccc3ccccc3c2)c2ccccc2[n+]1Cc1ccc2ccccc2c1.[Br-]	NCI60 five-dose screen	–	–	TGI	3.24 µM
CCCCCCCCCCCCCCCCCCOc1ccc(CC(=O)OCC[N+](C)(C)C)cc1	SRB	10 µM	–	growth inhibition	< 0%
